Published values collected from several papers.
Each line is one published result; not all experiments were run side by side.

CCOC(=O)C1(Cc2ccccc2C#N)Oc2cc(F)ccc2N(Cc2ccccc2C#N)C1=O (stereo not drawn) — inhibition (Arabidopsis thaliana; root length, petri dish germination; Col-0, 1/2 MS medium; 200 µg/mL, 7 days, 22 °C, dark): 55.3%
Cn1cc(S(=O)(=O)c2ccc3nc(N)sc3c2)cn1 — inhibition (Pseudomonas aeruginosa; swarming area, modified FAB agar; PA14-lux; 200 µM, 24 h; baseline: DMSO vehicle): -2.55%
Cc1ccc(N2CC3CC(C2)N3C)cc1C(=O)NC1(c2ccc3c4c(cccc24)C(=O)N3C)CC1 — inhibition (Betacoronavirus 1; viral replication; Huh-7, OC43; 46.88 nM): 0%
CCOC(=O)C1(Cc2ccc(OC)cc2)Oc2cc(F)ccc2N(Cc2ccc(OC)cc2)C1=O (stereo not drawn) — inhibition (Arabidopsis thaliana; root length, petri dish germination; Col-0, 1/2 MS medium; 50 µg/mL, 7 days, 22 °C, dark): 17.1%
CC(C)C[C@H](NC(=O)CNC(=O)[C@H](CCCCN)NC(=O)[C@@H](N)CC(C)C)C(=O)N[C@@H](C)C(=O)N[C@@H](C)C(=O)N[C@@H](CCCCN)C(=O)N[C@@H](CC(C)C)C(=O)N[C@@H](CC(C)C)C(=O)NCC(=O)N[C@@H](CC(C)C)C(=O)N[C@@H](CCCCN)C(=O)N[C@@H](CCCCN)C(=O)O — inhibition (Candida albicans; growth; ATCC 10231, potato dextrose broth; 128 µM, 30 °C): 0.934 fraction (0-1)
CC(=O)c1c(O)c(C)c(O)c2c1OC1=CC(=O)C(=C(C)NCCCC(=O)OC3OC4OC5(C)CCC6C(C)CCC(C3C)C46OO5)C(=O)C12C (stereo not drawn) — inhibition (Plasmodium berghei; parasitaemia; ANKA GFP, mouse NMRI; intraperitoneal, 4 × 50 mg/kg, day 4 post infection): 99.7%
CCOC(=O)C1(Cc2ccc(F)cc2)Oc2cc(F)ccc2N(Cc2ccc(F)cc2)C1=O (stereo not drawn) — inhibition (Arabidopsis thaliana; root length, petri dish germination; Col-0, 1/2 MS medium; 50 µg/mL, 7 days, 22 °C, dark): 36.6%
O=C(NNc1ccccc1)c1nnc(C23CC4CC(CC(C4)C2)C3)o1 — inhibition (Botryosphaeria dothidea; fungal growth, inhibitor; 50 µg/mL): 100%
Nc1nc2ccc(S(=O)(=O)c3cn[nH]c3N)cc2s1 — inhibition (Pseudomonas aeruginosa; swarming area, modified FAB agar; PA14-lux; 200 µM, 24 h; baseline: DMSO vehicle): 87%
CCOC(=O)C1(Cc2ccc(C#N)cc2F)Oc2cc(F)ccc2N(Cc2ccc(C#N)cc2F)C1=O (stereo not drawn) — inhibition (Arabidopsis thaliana; root length, petri dish germination; Col-0, 1/2 MS medium; 50 µg/mL, 7 days, 22 °C, dark): 30.1%
C[C@H](NC(=O)[C@@H](O)c1cc(F)cc(F)c1)C(=O)N[C@@H]1C(=O)N(C)c2ccccc2-c2ccccc21 — inhibition (dengue virus 2; viral infection, luciferase reporter virus; 30 nM, 48 h): 99.6%
CC(=O)c1c(O)c(C)c(O)c2c1OC1=CC(=O)C(=C(C)NCCCCOC3OC4OC5(C)CCC6C(C)CCC(C3C)C46OO5)C(=O)C12C (mixture of isomers) — inhibition (Plasmodium berghei; parasitaemia; ANKA GFP, mouse NMRI; intraperitoneal, 4 × 50 mg/kg, day 4 post infection): 99.6%
